# Measurements from different studies.
# A part holds a random share of what one study measured.

# Sample 1
# Target: RNA binding protein fox-1 homolog 2, RRM domain, GST-SBP tag (RBFOX2, Homo sapiens, UniProt O43251-10, residues 100-194)
# Method: RNA Bind-n-Seq
# Molecule type: RNA
# Sample: in vitro
# Concentration: 365 nM
# Notes: natural RNA segment, single round, ends assumed
# Relative to: no-protein control
# Direction: higher = stronger binding
# Shared flanks, not repeated: GGGAGUUCUACAGUCCGACGAUC … UGGAAUUCUCGGGUGCCAA
# Target sequence (chain): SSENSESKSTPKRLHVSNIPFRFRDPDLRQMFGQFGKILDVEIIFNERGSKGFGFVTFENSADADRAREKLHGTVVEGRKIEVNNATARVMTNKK
Strand,RBNS enrichment (R)
CUGCAAACUCAGUCUCAUGCUCCUGGAAUACCUUCAAUAGCUGCCUUCCUCACCGCAGAUGUUUCUGCCUCUUAAGGAUAGAUCUUCUGCAACAGUCUUGCUGACAAGCU,0.34
ACAAAUCGGCUUCCUCUCCCCACCCUCCUGCCACUCUAAGUAUUGAAUGUACUUUGUAUAAUUUUAGUGGAAUUAUUGUUAUUAAAGAGAAUAAAAUUUUUACAAUCAUA,0.403
AAGAAGUAUGAGAGUUGGGCUAUGGAGGGGUUGGAGGGAGGCCAGACAGGCACCAGGAGCAAGUCUGCCUCAGCAGCAGUGAGCUCUUUAUCUGGGAGGCCCUGUUCUGG,0.598
GGUUGCAUUGAGCUACUGGGGGUAGGAGUUCCAACAUUUAUGUCCAGAGCAACUUCCAGCAAGGCUGGUCUGGGUCUCUGCCCACCAGGCGGGGAGGUGUUCAAAGACAU,0.276
UAGCAGACAGGCAGGGGAUGCAAACGGCUGCCGGGCCACCUCUCCCCUCUCACAAACCAUAUAAACACAGGGAGGGGCUUUCUCACCACUUCUGAGGAGACUGUACAGCC,0.724
CCCAUUUUAAGGUAAUCUCAUUCUUCAAAAUGUUCCAUAGAAUCCUCCAAAUUCCCCCAGCAGACUUCUACCCUCGCCAAGUUCCCAAAACCCACUCAGCAAAGUUGCCA,0.678

# Sample 2
# Target: Interferon regulatory factor 7, full length, phosphomimetic (IRF7, Homo sapiens, UniProt Q92985, residues 1-503, S471D/S472D/S475D/S476D/S477D/S483D/S484D/S487D)
# Method: protein-binding microarray
# Molecule type: double-stranded DNA, one strand shown
# Sample: in vitro
# Concentration: 2200 nM top
# Notes: 60-bp whole probe
# Together with: salmon DNA 0.4 mg/ml
# Relative to: random background probes
# Direction: higher = stronger binding
# Shared flanks, not repeated: GCCTAGCAC … GTCTTGATTCGCTTGACGCTGCTG
# Construct (chain): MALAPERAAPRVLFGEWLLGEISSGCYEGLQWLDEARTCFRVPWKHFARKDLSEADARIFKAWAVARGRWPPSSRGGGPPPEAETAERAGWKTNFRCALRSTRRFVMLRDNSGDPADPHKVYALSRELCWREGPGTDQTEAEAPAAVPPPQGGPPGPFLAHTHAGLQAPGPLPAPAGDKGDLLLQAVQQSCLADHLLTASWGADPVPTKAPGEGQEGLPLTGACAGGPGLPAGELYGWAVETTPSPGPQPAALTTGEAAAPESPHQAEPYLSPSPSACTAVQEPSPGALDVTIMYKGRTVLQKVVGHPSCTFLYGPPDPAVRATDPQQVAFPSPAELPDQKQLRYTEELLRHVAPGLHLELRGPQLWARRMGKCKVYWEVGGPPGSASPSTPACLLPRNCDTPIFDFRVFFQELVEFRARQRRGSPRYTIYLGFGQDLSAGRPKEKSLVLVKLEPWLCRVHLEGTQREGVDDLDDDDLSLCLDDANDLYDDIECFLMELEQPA
Strand,fitted relative affinity
GACGGTCTCGGGTTCGGGACGTGCTAG,0.266 z-score
AAATGTGTTAGAAACAGGTTGTGCTAG,-0.204 z-score
GACGTTCTCGGTATCGGGACGTGCTAG,0.703 z-score
TTAGATTTCAGTTTGGATTAGTGCTAG,2.16 z-score
TTAGGACTGCTTTTCGTTTAGTGCTAG,3 z-score
TCATCTATCTTAAATAGGACTGTGCTA,0.106 z-score
TCATGGTTGAACATGAAACTGTGCTAG,0.314 z-score

# Sample 3
# Target: human cyclin A2
# Read-out: peptide binding
# Method: competitive growth sequencing
# Molecule type: peptide
# Organism: Saccharomyces cerevisiae
# Strain: cyclin A2-Cln2 fusion strain
# Concentration: concentration not given
# Notes: peptide tiling library
# Relative to: unfused Cln2 strain
# Direction: direction not given
Molecule,binding score
SGYLTDENEVGFRG,0.366
QNPCGSKACRRLFGPV,2.49
TSPGPVLLHPSPSTTQ,0.0696

# Other studies, line by line
Substance,target,test,system,conditions,scale,measurement,result
"PhoQ, residues 284 288 289 292 302 303 TLSLKA","PhoP, residues 12 14 15 18 19 SQCLL (Escherichia coli, UniProt P23836)","Sort-seq, item: YFP reporter",E. coli,"PhoQ-PhoP variant library, together with: 10 µM Mg2+","relative to: high Mg2+ state, higher = stronger signaling",fold induction,1.16

# Some of these lines once more (sample 2):
Strand,fitted relative affinity
TCATCTATCTTAAATAGGACTGTGCTA,0.106 z-score
TTAGATTTCAGTTTGGATTAGTGCTAG,2.16 z-score
AAATGTGTTAGAAACAGGTTGTGCTAG,-0.204 z-score
